{"data": "Assay results pooled from the literature", "note": "Each numbered part is a random draw from the data of one study; scales do not carry over between parts. Positions count from the first letter of the parent shown."}
{"data": "Sample 1", "target": "Histone acetyltransferase KAT6A, winged helix 2, GST fusion (KAT6A, Homo sapiens, UniProt Q92794, residues 85-181)", "technique": "protein binding microarray", "form": "double-stranded DNA, one strand shown", "medium": "in vitro", "tested at": "not given", "notes": "8-mer, flanks averaged, mean of 2 arrays, mostly near background", "baseline": "not given", "reading": "higher = stronger binding", "Residues (chain)": "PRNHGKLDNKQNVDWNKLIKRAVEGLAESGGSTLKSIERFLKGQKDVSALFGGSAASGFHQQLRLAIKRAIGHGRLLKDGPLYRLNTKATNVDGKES"}
{"Sequence": "AGTGTAGC", "E-score": -0.0354}
{"Sequence": "ATTTGGAC", "E-score": 0.00242}
{"Sequence": "AATTTCTG", "E-score": 0.127}
{"Sequence": "CGGGTTAC", "E-score": -0.0244}
{"Sequence": "AGCTCCAA", "E-score": 0.0895}
{"Sequence": "AGGTTATG", "E-score": -0.116}
{"Sequence": "AGAGTAGC", "E-score": -0.049}
{"Sequence": "CTTACTTC", "E-score": 0.0269}
{"Sequence": "ACTCATGG", "E-score": -0.12}
{"data": "Sample 2", "target": "Sal-like protein 4, full length isoform B (SALL4, Homo sapiens, UniProt Q9UJQ4-2, residues 1-616)", "technique": "universal PBM", "form": "double-stranded DNA, one strand shown", "medium": "in vitro", "tested at": "not given", "notes": "8-mer, flanks averaged, mean of replicates", "reading": "higher = stronger binding", "Construct (chain)": "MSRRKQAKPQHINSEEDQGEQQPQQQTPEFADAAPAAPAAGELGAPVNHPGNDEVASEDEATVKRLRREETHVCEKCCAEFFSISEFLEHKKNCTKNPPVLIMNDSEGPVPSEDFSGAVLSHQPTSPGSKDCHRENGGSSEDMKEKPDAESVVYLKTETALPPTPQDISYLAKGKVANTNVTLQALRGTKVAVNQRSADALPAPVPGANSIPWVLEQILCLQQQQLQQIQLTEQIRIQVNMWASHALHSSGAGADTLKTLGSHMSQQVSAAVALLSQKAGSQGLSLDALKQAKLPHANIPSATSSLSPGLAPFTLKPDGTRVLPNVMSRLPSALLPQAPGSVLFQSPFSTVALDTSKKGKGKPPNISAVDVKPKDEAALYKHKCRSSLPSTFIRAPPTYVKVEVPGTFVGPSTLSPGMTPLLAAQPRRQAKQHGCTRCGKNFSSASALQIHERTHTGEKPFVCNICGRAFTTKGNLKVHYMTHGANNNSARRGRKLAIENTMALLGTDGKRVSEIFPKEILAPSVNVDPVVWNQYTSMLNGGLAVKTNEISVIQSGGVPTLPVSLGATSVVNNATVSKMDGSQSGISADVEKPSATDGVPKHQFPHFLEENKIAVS"}
{"Sequence": "CGAAATCG", "E-score": -0.0373}
{"Sequence": "AGTTGGGG", "E-score": -0.0886}
{"Sequence": "AGAGGCTC", "E-score": -0.161}
{"Sequence": "ATCTACAA", "E-score": 0.259}
{"Sequence": "ATCTTAAC", "E-score": 0.196}
{"Sequence": "CATTGTCC", "E-score": 0.0325}
{"Sequence": "AAAATGCA", "E-score": 0.181}
{"data": "Sample 3", "target": "CCNA2, cyclin fold, Cln2 fusion (human)", "technique": "yeast growth competition, sequencing", "medium": "yeast", "notes": "strong parent motif", "baseline": "not given", "reading": "higher = stronger binding", "parent": "GMNC docking peptide (human); KNAKRNLSSEFAN; partner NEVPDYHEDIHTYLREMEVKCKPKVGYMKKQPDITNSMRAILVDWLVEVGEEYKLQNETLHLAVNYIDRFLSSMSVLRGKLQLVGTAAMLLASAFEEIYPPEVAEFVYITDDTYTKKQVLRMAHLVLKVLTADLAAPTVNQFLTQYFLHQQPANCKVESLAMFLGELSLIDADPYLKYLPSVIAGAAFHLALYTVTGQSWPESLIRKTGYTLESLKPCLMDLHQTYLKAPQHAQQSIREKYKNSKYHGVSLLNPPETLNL"}
{"Variant": "KQAKRNLSSEFAN [N2Q]", "normalised enrichment score": 5.12}
{"Variant": "KNAKRNISSEFAN [L7I]", "normalised enrichment score": 2.33}
{"Variant": "KAAKRNLSSEFAN [N2A]", "normalised enrichment score": 4.65}
{"Variant": "KNAKANLSSEFAN [R5A]", "normalised enrichment score": 0.583}
{"Variant": "KNAKRNRSSEFAN [L7R]", "normalised enrichment score": 0.164}
{"Variant": "KNAKRNLSSEFGN [A12G]", "normalised enrichment score": 4.76}
{"data": "Single results of other studies"}
{"Molecule": "PhoQ, residues 284 288 289 292 302 303 TNSAEL", "target": "PhoP, residues 12 14 15 18 19 AWHSL (Escherichia coli, UniProt P23836)", "test": "Sort-seq, measured: YFP reporter", "system": "E. coli", "setting": "PhoQ-PhoP variant library, added: 10 µM Mg2+", "scale": "baseline: high Mg2+ state, higher = stronger signaling", "measurement": "fold induction", "value": 1.57}
